Results of several laboratories.
Numbered parts are unrelated; each lists some results of a single study. Positions count from the first letter of the parent shown.

Set 1
Target: Centromere-binding protein 1, full length, His-tagged (CBF1, Saccharomyces cerevisiae, UniProt P17106, residues 1-351)
UniProt P17106, sequence (whole entry, looked up): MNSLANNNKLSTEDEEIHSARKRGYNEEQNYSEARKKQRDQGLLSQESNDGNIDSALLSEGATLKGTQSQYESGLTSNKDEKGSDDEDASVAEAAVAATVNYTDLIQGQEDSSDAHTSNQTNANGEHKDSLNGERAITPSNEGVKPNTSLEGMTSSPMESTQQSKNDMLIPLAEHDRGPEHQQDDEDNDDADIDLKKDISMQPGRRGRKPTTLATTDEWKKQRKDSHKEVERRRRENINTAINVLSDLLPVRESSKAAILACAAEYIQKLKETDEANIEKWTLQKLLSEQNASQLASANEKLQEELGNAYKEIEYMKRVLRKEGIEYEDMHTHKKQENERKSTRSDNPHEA
Method: competition protein-binding microarray
Form: double-stranded DNA, one strand shown
Medium: in vitro
Tested at: 2 µM
Notes: whole 60-bp probe, lowest competitor level
Together with: Pho4 competitor, 0.05 µM
Direction: higher = stronger binding
Constant ends, left off below: … GTCTTGATTCGCTTGACGCTGCTG
Sequence	fluorescence intensity [a.u.]
ATACCCTCAATTGGGCTCGTGTTGAGCAAGTTAAAC	88.5
TGCGCAACAACTTTTCACGTGTTTTTATGTCTAGAA	1270
TTTCATAGCGGGCCAAGCGTGGGTAAAGTGCTGGAC	63.1
CGGGGTTAAGTTTGGGGCGTGGGTGGCTTGCAGCAG	67.7
AACGGTTGATTCATTAATGTGATGCTTGTTCACCCT	72.1
CGGGGTTAAGTTTGTAATGTGGGTGGCTTGCAGCAG	74.9
AACGGAAATGCATCTCGCGTGGCAAGGCGGCTCGCT	57.5
AAAGAGACACAAAACTACGTGGGACAAGCTTGGGGT	58.9
GACAGCGACGGTAAACGCGTGTCGGTCGAGAAGGAG	80.6
AAATTACTAAGTTGTTATGTGGGTGACGCCGTATGA	73.7
CCGAAAAGTGAAGATGATGTGATATTGGGCGAGAGC	88.3
CGGGGTTAAGTTTATCACGTGTTTTGCTTGCAGCAG	3690
TGGATAAAATTTAAGCGCGTGAAATTGGAATCTAAA	104
CCATTAGTAGGTTGTCATGAAGGTGCTGGTGTAGTT	74.7

Set 2
Target: Prothrombin, mature alpha-thrombin (F2, Homo sapiens, UniProt P00734)
Method: aptamer microarray, sandwich
Form: DNA with 2'F-ANA
Medium: in vitro
Tested at: 200 nM
Notes: whole 15-mer aptamer, many near background
Together with: Cy3 exosite-II aptamer, 400 nM
Direction: higher = stronger binding
Sequence: GGTTGGTGTGGTTGG
Modification	mean fluorescence intensity [a.u.]
2'F-ANA at 1 4 5 6 10 11 12 14	52.1
2'F-ANA at 1 7 8 9 10 11 12 13 14	62.8
2'F-ANA at 2 3 5 7 8 10 12 13 14 15	255
2'F-ANA at 1 2 4 5 9 12	126
2'F-ANA at 3 4 6 8 9 10 11 14	193
2'F-ANA at 1 2 3 4 5 7 9 10 11 12 13 14	52.7
2'F-ANA at 1 4 5 7 10 11 12 13 15	47.4
2'F-ANA at 1 3 4 5 6 8 10 13 15	59.5
2'F-ANA at 2 4 7 8 10 12 13	106
2'F-ANA at 1 4 6 7 8 10 11 15	49.5
2'F-ANA at 2 4 5 8 9 11 12 13	80.5
2'F-ANA at 1 3 5 6 7 8 11 12 13	92.2

Set 3
Target: CCNA1, cyclin fold, Cln2 fusion (human)
Method: yeast growth competition, sequencing
Medium: yeast
Notes: weak parent motif
Reference: not given
Direction: higher = stronger binding
Starting sequence: WEE1 docking peptide (human); HKTFRKLRLFDTP; partner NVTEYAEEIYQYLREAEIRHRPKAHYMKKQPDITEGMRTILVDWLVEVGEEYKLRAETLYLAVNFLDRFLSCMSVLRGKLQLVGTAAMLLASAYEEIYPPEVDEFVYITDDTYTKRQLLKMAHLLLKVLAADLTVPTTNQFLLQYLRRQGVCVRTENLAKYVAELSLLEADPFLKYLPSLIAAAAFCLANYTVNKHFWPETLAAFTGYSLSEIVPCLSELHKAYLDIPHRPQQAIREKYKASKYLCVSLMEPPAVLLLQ
Change	normalised enrichment score
AKTFRKLRLFDTP [H1A]	0.298
HKTFRKLRSFDTP [L9S]	0.667
HFTFRKLRLFDTP [K2F]	-0.0455
HKTFRKLRYFDTP [L9Y]	0.618
HKTFRMLRLFDTP [K6M]	0.000878
IKTFRKLRLFDTP [H1I]	0.632
HKTFRKLRLFDPP [T12P]	0.165
HKTFRKLRLGDTP [F10G]	0.181
HKTFRKLRLFDTF [P13F]	0.116
HGTFRKLRLFDTP [K2G]	0.204
RKTFRKLRLFDTP [H1R]	0.393
HKTFRKLRCFDTP [L9C]	0.278
TKTFRKLRLFDTP [H1T]	0.548
VKTFRKLRLFDTP [H1V]	0.0574

Further values, each from its own experiment
Substance	target	test	test system	setting	how to read	measurement	result
PhoQ, residues 284 288 289 292 302 303 AGHLVA	PhoP, residues 12 14 15 18 19 SMASL (Escherichia coli, UniProt P23836)	Sort-seq, refers to: YFP reporter	E. coli	PhoQ-PhoP variant library, together with: 10 µM Mg2+	reference: high Mg2+ state, higher = stronger signaling	fold induction	3.85
